{"data": "Measured values collected from several papers", "note": "Each line is one published result; not all experiments were run side by side. Numbers after ± are the reported error."}
{"Structure (SMILES)": "N#CCc1cccc(Cl)c1-c1ccc2[nH][11c](=O)[nH]c2c1", "tested on": "P-glycoprotein and Bcrp", "assay": "ex vivo brain uptake", "system": "mouse", "conditions": "injection, 5 min, together with: tariquidar and Ko143", "how to read": "relative to: without inhibitors", "endpoint": "brain uptake increase", "value": "186%"}
{"Structure (SMILES)": "NC12CNCCNCC(NCc3ccc(CNC(=O)CCCC(=O)NCc4ccc(-c5nncnn5)cc4)cc3)(CNCCNC1)CNCCNC2.[64Cu+2]", "system": "athymic nude mice, SW1222 xenograft, tumor", "conditions": "24 h post-injection, 24 h pretargeting interval, together with: huA33-TCO pretargeting", "endpoint": "tissue uptake", "value": "7.38 ± 2.02 %ID/g"}
{"Structure (SMILES)": "CC(C)[C@H](NC(=O)[C@@H]1CCCN1C(=O)[C@H](CCCNC(=N)N)NC(=O)[C@H](CS)NC(=O)[C@H](Cc1c[nH]c2ccccc12)NC(=O)[C@H](CCCNC(=N)N)NC(=O)[C@@H](Cc1ccccc1)NC(=O)[C@H](Cc1c[nH]cn1)NC(=O)[C@H](CCC(=O)O)NC(=O)[C@H](CS)NC(=O)[C@H](CS)NC(=O)CNC(=O)[C@@H]1CC(=O)N[C@@H](CCCNC(=N)N)C(=O)NCC(=O)N[C@@H](CC(=O)O)C(=O)N[C@H](Cc2ccc(O)cc2)C(=O)N1)C(N)=O [technetium-99m labelled]", "system": "C57 mouse, female, B16/F1 melanoma, heart", "conditions": "intravenous, 0.037 MBq, 24 h", "endpoint": "tissue uptake", "value": "0.2 ± 0.05 %ID/g"}
{"Structure (SMILES)": "O=C(O)C1CN(Cc2ccc(-c3noc(-c4ccc(OCC[18F])c(C(F)(F)F)c4)n3)cc2)C1", "system": "male Sprague-Dawley rat, kidney", "conditions": "intravenous, 60 min", "endpoint": "tissue uptake", "value": "1.12 ± 0.052 %ID/g"}
{"Structure (SMILES)": "O=C([O-])CN1CCN(CC(=O)[O-])CCN(CC(=O)NCCc2ccc3c(c2)C2C=CCC2C(c2cc4c(cc2Br)OCO4)N3)CCN(CC(=O)[O-])CC1.[111In+3] (stereo not shown)", "system": "mouse, Hec50 endometrial tumour, heart", "conditions": "2 h post injection", "endpoint": "tissue uptake", "value": "0.25 ± 0.04 %ID/g"}
{"Structure (SMILES)": "CN1C(=O)[C@@H](Cc2ccc(O)c(I)c2)NC(=O)CNC(=O)[C@H](Cc2ccc3ccccc3c2)NC(=O)[C@H](CCCNC(=N)N)NC(=O)[C@H]1CCCNC(=O)c1ccc(CNC(=O)CN2CCN(CC(=O)O)CCN(CC(=O)O)CCN(CC(=O)O)CC2)cc1 [lutetium-177 labelled]", "assay": "refers to: 177Lu radioactivity", "system": "female CB-17 SCID mice, Daudi xenograft, spleen", "conditions": "intravenous, 0.16 nmol per mouse, 6 h", "endpoint": "tissue uptake", "value": "1.35 ± 0.41 %ID/g"}
{"Structure (SMILES)": "CCCC[C@H](NC(=O)CNC(=O)CNC(=O)CN1CCN(CC(=O)O)CCN(CC(=O)O)CCN(CC(=O)O)CC1)C(=O)N[C@H]1CC(=O)NCCCC[C@@H](C(N)=O)NC(=O)[C@H](Cc2c[nH]c3ccccc23)NC(=O)[C@H](CCCNC(=N)N)NC(=O)[C@@H](Cc2ccccc2)NC(=O)[C@H](Cc2c[nH]cn2)NC1=O [lutetium-177 labelled]", "system": "C57 mouse, female, stomach", "conditions": "intravenous, 0.037 MBq, 2 h", "endpoint": "tissue uptake", "value": "1.37 ± 0.45 %ID/g"}
{"Structure (SMILES)": "[64Cu+2].c1ccc(CNCc2ccc(CN3CCCN4CCNCCCN(CC4)CC3)cc2)nc1", "tested on": "CXCR4", "system": "NOD/SCID mouse, U87 and U87-stb-CXCR4 xenografts, blood", "conditions": "iv, 30 min, ex vivo", "endpoint": "tissue uptake", "value": "3.9 ± 0.57 %ID/g"}
{"Structure (SMILES)": "CCCC[C@H](NC(=O)CNC(=O)CNC(=O)CN1CCN(CC(=O)O)CCN(CC(=O)O)CCN(CC(=O)O)CC1)C(=O)N[C@H]1CC(=O)NCCCC[C@@H](C(N)=O)NC(=O)[C@H](Cc2c[nH]c3ccccc23)NC(=O)[C@H](CCCNC(=N)N)NC(=O)[C@@H](Cc2ccccc2)NC(=O)[C@H](Cc2c[nH]cn2)NC1=O [copper-64 labelled]", "system": "female C57 mouse, B16/F1 melanoma, tumor", "conditions": "intravenous, 0.037 MBq, 2 h", "endpoint": "tissue uptake", "value": "5.2 ± 1.28 %ID/g"}
{"Structure (SMILES)": "CCCC[C@@H]1NC(=O)[C@@H](NC(=O)[C@H](CCC(=O)O)NC(=O)CNC(=O)CN2CCN(CC(=O)O)CCN(CC(=O)O)CCN(CC(=O)O)CC2)CCCCNC(=O)C[C@@H](C(N)=O)NC(=O)[C@H](C(C)C)NC(=O)[C@@H]2CCCN2C(=O)[C@H](CCCNC(=N)N)NC(=O)CNC(=O)[C@H](Cc2c[nH]c3ccccc23)NC(=O)[C@H](CCCNC(=N)N)NC(=O)[C@@H](Cc2ccccc2)NC(=O)[C@H](Cc2c[nH]cn2)NC(=O)[C@H](CCC(=O)O)NC1=O [gallium-67 labelled]", "system": "normal C57 mice, brain", "conditions": "intravenous, 0.037 MBq/mouse, 2 h", "endpoint": "tissue uptake", "value": "0.01 ± 0.01 %ID/g"}
{"Structure (SMILES)": "OCc1cn(Cc2ccc(-c3noc(-c4ccc(OCC[18F])c(C(F)(F)F)c4)n3)cc2)nn1", "system": "Lewis rat, female, bone", "conditions": "intravenous, 1 h", "endpoint": "tissue uptake", "value": "0.45 ± 0.01 %ID/g"}
{"Structure (SMILES)": "O=C([O-])CN1CCN(CC(=O)[O-])CCN(CC(=O)[O-])CCN(CC(=O)[O-])CC1.[64Cu+2]", "system": "healthy athymic nude mice, large intestine", "conditions": "intravenous, 4 h", "endpoint": "tissue uptake", "value": "2.19 %ID/g"}
{"Structure (SMILES)": "[64Cu+2].c1cnc(CNCc2ccc(CN3CCCN4CCNCCCN(CC4)CC3)cc2)nc1", "tested on": "CXCR4", "system": "NOD/SCID mouse, U87 and U87-stb-CXCR4 xenografts, kidney", "conditions": "iv, 90 min, ex vivo", "endpoint": "tissue uptake", "value": "35.3 ± 2.15 %ID/g"}
